Assay results collected from several papers.
± marks the error that the study gave.
rep main protease: Replicase polyprotein 1ab, main protease (rep, Severe acute respiratory syndrome coronavirus 2, UniProt P0DTD1)
plsY3: Glycerol-3-phosphate acyltransferase 3 (plsY3, Bacillus anthracis, UniProt Q81Y92)
UniProt Q81Y92, sequence (whole entry, looked up): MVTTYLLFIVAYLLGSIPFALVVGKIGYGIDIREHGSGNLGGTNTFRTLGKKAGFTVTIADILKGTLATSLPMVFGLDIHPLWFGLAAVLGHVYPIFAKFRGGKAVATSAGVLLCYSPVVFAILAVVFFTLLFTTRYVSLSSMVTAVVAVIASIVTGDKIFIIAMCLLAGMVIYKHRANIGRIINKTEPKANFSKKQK
UniProt Q5XXP4, sequence (whole entry, looked up): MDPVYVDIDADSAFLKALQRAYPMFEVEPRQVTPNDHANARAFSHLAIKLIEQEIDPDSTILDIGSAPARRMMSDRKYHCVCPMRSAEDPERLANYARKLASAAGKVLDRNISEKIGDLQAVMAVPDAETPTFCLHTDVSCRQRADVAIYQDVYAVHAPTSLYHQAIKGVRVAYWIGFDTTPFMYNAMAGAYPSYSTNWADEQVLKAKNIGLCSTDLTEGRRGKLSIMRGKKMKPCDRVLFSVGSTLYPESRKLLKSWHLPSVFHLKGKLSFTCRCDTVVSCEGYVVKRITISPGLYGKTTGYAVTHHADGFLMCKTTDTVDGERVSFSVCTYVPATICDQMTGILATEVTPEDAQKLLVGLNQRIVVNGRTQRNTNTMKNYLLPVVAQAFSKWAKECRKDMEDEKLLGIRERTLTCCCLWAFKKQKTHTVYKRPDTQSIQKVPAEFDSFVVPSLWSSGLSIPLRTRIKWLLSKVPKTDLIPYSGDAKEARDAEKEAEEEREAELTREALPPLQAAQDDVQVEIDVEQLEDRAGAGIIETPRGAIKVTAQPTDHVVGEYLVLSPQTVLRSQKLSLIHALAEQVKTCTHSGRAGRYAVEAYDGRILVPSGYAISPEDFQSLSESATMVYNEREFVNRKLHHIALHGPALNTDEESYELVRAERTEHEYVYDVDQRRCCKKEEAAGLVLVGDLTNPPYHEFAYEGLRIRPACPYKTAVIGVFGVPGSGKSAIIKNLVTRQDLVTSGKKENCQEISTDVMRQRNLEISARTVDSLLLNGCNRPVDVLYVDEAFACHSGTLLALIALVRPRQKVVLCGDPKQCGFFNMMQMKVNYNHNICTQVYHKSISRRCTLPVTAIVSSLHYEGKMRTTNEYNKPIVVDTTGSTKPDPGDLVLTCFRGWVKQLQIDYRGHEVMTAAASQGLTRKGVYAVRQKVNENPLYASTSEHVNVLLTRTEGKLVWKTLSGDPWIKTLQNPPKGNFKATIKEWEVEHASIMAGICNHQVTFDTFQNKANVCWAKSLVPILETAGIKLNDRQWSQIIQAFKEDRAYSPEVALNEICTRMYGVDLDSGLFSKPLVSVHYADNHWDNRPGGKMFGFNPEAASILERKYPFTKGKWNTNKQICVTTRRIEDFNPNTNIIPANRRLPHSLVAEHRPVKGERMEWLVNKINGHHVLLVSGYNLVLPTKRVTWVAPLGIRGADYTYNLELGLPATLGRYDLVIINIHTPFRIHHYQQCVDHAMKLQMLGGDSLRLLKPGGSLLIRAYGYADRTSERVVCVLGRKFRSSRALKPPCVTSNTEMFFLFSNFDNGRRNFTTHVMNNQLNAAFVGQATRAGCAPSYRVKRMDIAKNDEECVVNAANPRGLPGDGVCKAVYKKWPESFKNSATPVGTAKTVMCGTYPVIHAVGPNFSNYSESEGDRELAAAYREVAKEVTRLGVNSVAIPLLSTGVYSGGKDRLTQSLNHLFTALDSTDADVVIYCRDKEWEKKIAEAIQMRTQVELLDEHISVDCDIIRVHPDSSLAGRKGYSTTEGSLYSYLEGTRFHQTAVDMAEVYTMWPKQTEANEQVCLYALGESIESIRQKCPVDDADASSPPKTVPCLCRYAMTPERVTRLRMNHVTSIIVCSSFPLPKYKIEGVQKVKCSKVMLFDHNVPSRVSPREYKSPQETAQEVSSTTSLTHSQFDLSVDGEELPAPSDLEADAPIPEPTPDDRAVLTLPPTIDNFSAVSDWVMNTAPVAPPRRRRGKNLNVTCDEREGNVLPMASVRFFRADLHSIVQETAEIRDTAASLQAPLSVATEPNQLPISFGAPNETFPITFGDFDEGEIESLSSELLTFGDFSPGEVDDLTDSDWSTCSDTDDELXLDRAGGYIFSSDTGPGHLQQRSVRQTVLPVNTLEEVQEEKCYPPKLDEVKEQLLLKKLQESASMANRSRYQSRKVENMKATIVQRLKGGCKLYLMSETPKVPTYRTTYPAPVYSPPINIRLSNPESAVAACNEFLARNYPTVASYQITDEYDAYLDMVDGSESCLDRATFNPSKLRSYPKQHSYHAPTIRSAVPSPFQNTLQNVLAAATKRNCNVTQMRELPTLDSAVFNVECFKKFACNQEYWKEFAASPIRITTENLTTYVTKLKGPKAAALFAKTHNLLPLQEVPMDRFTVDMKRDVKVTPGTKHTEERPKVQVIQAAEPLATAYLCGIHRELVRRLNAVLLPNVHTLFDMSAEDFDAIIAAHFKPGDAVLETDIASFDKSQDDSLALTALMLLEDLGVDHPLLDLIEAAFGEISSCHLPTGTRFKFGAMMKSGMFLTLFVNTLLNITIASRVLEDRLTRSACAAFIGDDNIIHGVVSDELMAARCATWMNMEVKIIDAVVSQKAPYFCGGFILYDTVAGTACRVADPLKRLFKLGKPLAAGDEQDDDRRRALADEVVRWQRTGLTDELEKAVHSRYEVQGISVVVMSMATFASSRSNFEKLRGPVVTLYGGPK
UniProt Q9BYF1, sequence (whole entry, looked up): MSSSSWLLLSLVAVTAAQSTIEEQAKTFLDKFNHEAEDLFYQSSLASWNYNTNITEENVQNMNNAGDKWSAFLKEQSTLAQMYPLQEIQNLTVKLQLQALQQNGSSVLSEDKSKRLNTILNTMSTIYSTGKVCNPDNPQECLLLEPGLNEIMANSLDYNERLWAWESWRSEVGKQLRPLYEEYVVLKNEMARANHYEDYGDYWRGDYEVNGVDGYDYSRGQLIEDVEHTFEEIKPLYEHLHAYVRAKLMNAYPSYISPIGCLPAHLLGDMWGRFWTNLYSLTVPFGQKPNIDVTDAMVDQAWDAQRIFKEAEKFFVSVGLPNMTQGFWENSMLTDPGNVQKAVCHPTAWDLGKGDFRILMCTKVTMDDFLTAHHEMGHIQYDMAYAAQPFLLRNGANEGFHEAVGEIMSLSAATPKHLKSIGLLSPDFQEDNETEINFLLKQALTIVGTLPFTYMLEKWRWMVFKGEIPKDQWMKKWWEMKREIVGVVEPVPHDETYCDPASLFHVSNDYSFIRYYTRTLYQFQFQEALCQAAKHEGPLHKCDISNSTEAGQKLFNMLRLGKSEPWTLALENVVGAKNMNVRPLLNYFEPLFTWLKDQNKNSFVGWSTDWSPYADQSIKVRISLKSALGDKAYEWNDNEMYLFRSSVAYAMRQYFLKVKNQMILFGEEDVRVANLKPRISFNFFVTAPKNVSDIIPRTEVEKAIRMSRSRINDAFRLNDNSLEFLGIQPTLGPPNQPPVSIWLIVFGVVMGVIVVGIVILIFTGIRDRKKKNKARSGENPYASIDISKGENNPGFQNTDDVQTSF

Structure (SMILES)	target or system	test	test system	setting	how to read	endpoint	value
Cn1cnc(Cn2c(=O)[nH]/c(=N\c3cc4cn(C)nc4cc3Cl)n(Cc3cc(F)c(F)cc3F)c2=O)n1			human, moderate renal impairment, plasma	oral, 375 mg single dose, 3 h		unbound fraction	0.0125
O=C(c1cnn2c1CCC2)N1CCCCC[C@@H](Nc2nc(-c3cccnc3)nc3c2CCC3)C1	rep main protease	enzyme activity, inhibitor		5 µM, run 1		inhibition	7.6%
CNC(=O)[C@@H](NC(=O)[C@H](CC(C)C)[C@H](O)C(=O)NO)C(C)(C)C	human fibrinogen	SDS-PAGE	Daboia russelii	concentration not given, unit not given, with: PB venom	reference: untreated fibrinogen	remaining fibrinogen γ chain	0.54
CC[C@H](C)[C@H](NC(=O)[C@H](CC(C)C)NC(=O)[C@H](Cc1c[nH]c2ccccc12)NC(=O)[C@H](CCC(N)=O)NC(=O)[C@@H](NC(=O)[C@H](Cc1ccccc1)NC(=O)[C@H](C)NC(=O)[C@H](CCCCNC(=O)COCCOCCNC(=O)COCCOCCNC(=O)CC[C@H](NC(=O)CCCCCCCCCCCCCCCCCCC(=O)O)C(=O)O)NC(=O)[C@H](CCC(N)=O)NC(=O)[C@H](C)NC(=O)[C@@H](NC(=O)[C@H](CCCCN)NC(=O)[C@H](CC(=O)O)NC(=O)[C@H](CC(C)C)NC(=O)C(C)(C)NC(=O)[C@@H](NC(=O)[C@H](CO)NC(=O)[C@H](Cc1ccc(O)cc1)NC(=O)[C@H](CC(=O)O)NC(=O)[C@H](CO)NC(=O)[C@@H](NC(=O)[C@H](Cc1ccccc1)NC(=O)[C@@H](NC(=O)CNC(=O)[C@H](CCC(=O)O)NC(=O)C(C)(C)NC(=O)[C@@H](N)Cc1ccc(O)cc1)[C@@H](C)O)[C@@H](C)O)[C@@H](C)CC)[C@@H](C)CC)C(C)C)C(=O)N[C@@H](C)C(=O)NCC(=O)NCC(=O)N1CCC[C@H]1C(=O)N[C@@H](CO)C(=O)N[C@@H](CO)C(=O)NCC(=O)N[C@@H](C)C(=O)N1CCC[C@H]1C(=O)N1CCC[C@H]1C(=O)N1CCC[C@H]1C(=O)N[C@@H](CO)C(N)=O			human, plasma	sc, 5.0 mg once weekly, week 7, geometric mean		Vz/F	8 L
Nc1ncnc2c1ncn2[C@H]1C[C@H](O)[C@@H](COP(=O)(O)OP(=O)(O)OP(=O)(O)O)O1	Gag-Pol polyprotein, reverse transcriptase (gag-pol, Human immunodeficiency virus type 1 group M subtype B, UniProt P04585, K653T)	substrate		K66T mutant, with: matched T:A primer template		kcat	0.242 ± 0.0107 s⁻¹
CCc1c(C(=O)C(N)=O)c2c(OCC(=O)O)cccc2n1Cc1ccccc1	Daboia russelii		mouse	90 µg, up to 24 h, with: southern venom preincubated		time of death	> 24 h
O=C1NC(=O)C2(CC(C(=O)N3CCC[C@H]([C@H]4CCCN(C(=O)Cc5cccnc5)C4)C3)C2)N1 (stereo partly drawn)	rep main protease	enzyme activity, inhibitor		5 µM, run 1		inhibition	10.4%
O=C(Nc1cccnn1)N1CCC(=Cc2cccc(Oc3ccc(C(F)(F)F)cn3)c2)CC1	strychnine-sensitive glycine receptor, rat	binding		10 µM, with: [3H]strychnine		inhibition	12%
Cc1ccc(NC(=O)CCl)cc1N1CCOC1=O	Polyprotein P1234, nsP2 protease domain (Chikungunya virus, UniProt Q5XXP4)	protease activity, FRET		20 µM		inhibition	101%
CCCCCCCCCCCC(=O)C(F)(F)P(=O)(O)O	plsY3	inhibitor		200 µM		inhibition	100%
CC(C)(C)[C@H](NC(=O)C(F)(F)F)C(=O)N1C[C@H]2[C@@H]([C@H]1C(=O)N[C@H](C#N)C[C@@H]1CCNC1=O)C2(C)C			human, fasted	oral, 150 mg single dose, 28 days, no ritonavir		participants with serious adverse events	0%
COc1ccc2[nH]c(C(O)c3ccccc3)c(CCNC(C)=O)c2c1 (stereo not drawn)	Angiotensin-converting enzyme 2, with SARS-CoV-2 spike RBD (ACE2, Homo sapiens, UniProt Q9BYF1)	RBD binding, TR-FRET		100 µM, with: RBD-d2 5 nM		inhibition	20 to 30%
O=C(N[C@@H](CNC(=O)[C@H]1CCCc2[nH]cnc21)c1ccc2ccccc2c1)c1cccnn1	rep main protease	enzyme activity, inhibitor		5 µM, run 1		inhibition	17.2%
O.O=C1NC(=O)C(=O)C(=O)N1	rep main protease	reporter gene (mKate2), inhibitor		20 µM		inhibition	-0.0939%
Nc1ncnc2c([C@@H]3N[C@H](CO)[C@@H](O)[C@H]3O)c[nH]c12	Marburg virus		HeLa, Musoke	1.6 µM, 1 h		viral RNA copies	2.09e+07 copies/mL
NC(=O)C1=C(O)C[C@@H]2C[C@@H]3Cc4cccc(O)c4C(=O)C3=C(O)[C@]2(O)C1=O	rep main protease	reporter gene (Gaussia luciferase), inhibitor		20 µM		inhibition	-1.05%
CC[C@H](C)[C@H](NC(=O)[C@H](CC(C)C)NC(=O)[C@H](Cc1c[nH]c2ccccc12)NC(=O)[C@H](CCC(N)=O)NC(=O)[C@@H](NC(=O)[C@H](Cc1ccccc1)NC(=O)[C@H](C)NC(=O)[C@H](CCCCNC(=O)COCCOCCNC(=O)COCCOCCNC(=O)CC[C@H](NC(=O)CCCCCCCCCCCCCCCCCCC(=O)O)C(=O)O)NC(=O)[C@H](CCC(N)=O)NC(=O)[C@H](C)NC(=O)[C@@H](NC(=O)[C@H](CCCCN)NC(=O)[C@H](CC(=O)O)NC(=O)[C@H](CC(C)C)NC(=O)C(C)(C)NC(=O)[C@@H](NC(=O)[C@H](CO)NC(=O)[C@H](Cc1ccc(O)cc1)NC(=O)[C@H](CC(=O)O)NC(=O)[C@H](CO)NC(=O)[C@@H](NC(=O)[C@H](Cc1ccccc1)NC(=O)[C@@H](NC(=O)CNC(=O)[C@H](CCC(=O)O)NC(=O)C(C)(C)NC(=O)[C@@H](N)Cc1ccc(O)cc1)[C@@H](C)O)[C@@H](C)O)[C@@H](C)CC)[C@@H](C)CC)C(C)C)C(=O)N[C@@H](C)C(=O)NCC(=O)NCC(=O)N1CCC[C@H]1C(=O)N[C@@H](CO)C(=O)N[C@@H](CO)C(=O)NCC(=O)N[C@@H](C)C(=O)N1CCC[C@H]1C(=O)N1CCC[C@H]1C(=O)N1CCC[C@H]1C(=O)N[C@@H](CO)C(N)=O			healthy subjects, single ascending dose	0.25 mg, titre ≥1:20		treatment-induced ADA positive subjects	0%
Cc1nn(CC(=O)N2C[C@H]3C[C@@H]2CC[C@H]3NC(=O)C=C2C3CC4CC(C3)CC2C4)c(=O)n1C	rep main protease	enzyme activity, inhibitor		5 µM		inhibition	12.4%
O=C(O)c1cc(N(Cc2ccccc2O)Cc2ccccc2O)ccc1O	rep main protease	reporter gene (mKate2), inhibitor		20 µM		inhibition	-1.48%
O=C(Nc1cccnn1)N1CCN([C@@H]2CCOc3cc(C(F)(F)F)ccc32)CC1	Grin1 (Rattus norvegicus, UniProt P35439)	binding		20 µM, glycine site, strychnine-insensitive		inhibition	-17%
CC[C@H](C)[C@H](N)C(=O)N1CCC[C@H]1C(=O)N[C@H](C(=O)O)[C@@H](C)CC	rep main protease	reporter gene (mKate2), inhibitor		20 µM		inhibition	-0.522%
CCCCCCCC/C=C\CCCCCCCCNC(=O)CP(=O)(O)O	plsY3	inhibitor		200 µM		inhibition	62%
O=C(O)CC[C@H]1CC[C@@](c2cc(F)ccc2F)(S(=O)(=O)c2ccc(Cl)cc2)CC1	rep main protease	reporter gene (Gaussia luciferase), inhibitor		20 µM		inhibition	0.338%
CCCCCCCC(=O)CP(=O)(O)O	plsY3	inhibitor		200 µM		inhibition	0%

Repeated from above:
Structure (SMILES)	target or system	test	test system	setting	how to read	endpoint	value
NC(=O)C1=C(O)C[C@@H]2C[C@@H]3Cc4cccc(O)c4C(=O)C3=C(O)[C@]2(O)C1=O	rep main protease	reporter gene (Gaussia luciferase), inhibitor		20 µM		inhibition	-1.05%
CC[C@H](C)[C@H](NC(=O)[C@H](CC(C)C)NC(=O)[C@H](Cc1c[nH]c2ccccc12)NC(=O)[C@H](CCC(N)=O)NC(=O)[C@@H](NC(=O)[C@H](Cc1ccccc1)NC(=O)[C@H](C)NC(=O)[C@H](CCCCNC(=O)COCCOCCNC(=O)COCCOCCNC(=O)CC[C@H](NC(=O)CCCCCCCCCCCCCCCCCCC(=O)O)C(=O)O)NC(=O)[C@H](CCC(N)=O)NC(=O)[C@H](C)NC(=O)[C@@H](NC(=O)[C@H](CCCCN)NC(=O)[C@H](CC(=O)O)NC(=O)[C@H](CC(C)C)NC(=O)C(C)(C)NC(=O)[C@@H](NC(=O)[C@H](CO)NC(=O)[C@H](Cc1ccc(O)cc1)NC(=O)[C@H](CC(=O)O)NC(=O)[C@H](CO)NC(=O)[C@@H](NC(=O)[C@H](Cc1ccccc1)NC(=O)[C@@H](NC(=O)CNC(=O)[C@H](CCC(=O)O)NC(=O)C(C)(C)NC(=O)[C@@H](N)Cc1ccc(O)cc1)[C@@H](C)O)[C@@H](C)O)[C@@H](C)CC)[C@@H](C)CC)C(C)C)C(=O)N[C@@H](C)C(=O)NCC(=O)NCC(=O)N1CCC[C@H]1C(=O)N[C@@H](CO)C(=O)N[C@@H](CO)C(=O)NCC(=O)N[C@@H](C)C(=O)N1CCC[C@H]1C(=O)N1CCC[C@H]1C(=O)N1CCC[C@H]1C(=O)N[C@@H](CO)C(N)=O			healthy subjects, single ascending dose	0.25 mg, titre ≥1:20		treatment-induced ADA positive subjects	0%
Cc1nn(CC(=O)N2C[C@H]3C[C@@H]2CC[C@H]3NC(=O)C=C2C3CC4CC(C3)CC2C4)c(=O)n1C	rep main protease	enzyme activity, inhibitor		5 µM		inhibition	12.4%
